Published values gathered from unrelated publications.
Each line is one published result; not all experiments were run side by side. Numbers after ± are the reported error. In brackets after ≈: the same amount, converted by molar mass.

Compound = Cc1cn(C2CCC(OC(C(=O)O)P(=O)(O)O)C2)c(=O)[nH]c1=O (racemic); tested on = HIV-1 reverse transcriptase K65R; assay = enzyme activity, inhibitor; conditions = with: poly(rA)·oligo(dT), [3H]dTTP; how to read = relative to: mutant over wild type; measurement = fold resistance; value = 1.5 fold
Compound = CC[C@H](C)[C@H](NC(=O)[C@H](CCCCN)NC(=O)[C@H](CCCCN)NC(=O)[C@H](CC(C)C)NC(=O)[C@H](Cc1c[nH]c2ccccc12)NC(=O)CN)C(=O)NCC(=O)N[C@@H](CCCCN)C(=O)N[C@@H](CCCCN)C(=O)N[C@H](C(=O)N[C@@H](CCC(=O)O)C(=O)N[C@@H](CCCNC(=N)N)C(=O)N[C@H](C(=O)NCC(=O)N[C@@H](CCC(N)=O)C(=O)N[C@@H](Cc1c[nH]cn1)C(=O)N[C@H](C(=O)N[C@@H](CCCNC(=N)N)C(=O)N[C@@H](CC(=O)O)C(=O)N[C@@H](C)C(=O)N[C@H](C(=O)N[C@H](C(=O)N[C@@H](CCC(N)=O)C(=O)N[C@H](C(=O)N[C@H](C(=O)NCC(=O)N[C@H](C(=O)N[C@@H](C)C(=O)N[C@@H](CCC(N)=O)C(=O)N[C@@H](CCC(N)=O)C(=O)N[C@@H](C)C(=O)N[C@@H](C)C(=O)N[C@@H](CC(N)=O)C(=O)N[C@H](C(=O)N[C@@H](C)C(=O)N[C@@H](C)C(=O)N[C@H](C(=O)N[C@@H](CC(C)C)C(=O)N[C@@H](CCCCN)C(N)=O)[C@@H](C)O)C(C)C)C(C)C)[C@@H](C)CC)[C@@H](C)O)[C@@H](C)CC)[C@@H](C)O)[C@@H](C)O)C(C)C)[C@@H](C)CC; tested on = Pseudomonas aeruginosa; assay = broth microdilution; system = ATCC 27853, CAMHB; measurement = MIC; value = 64 µg/mL (≈ 15.2 µM)
Compound = CCCCCCCCCCCCCCCC(=O)N[C@@H](CCC(=O)NCCOCCOCCC(=O)NCCOCCOCCC(=O)NCCCC[C@H](NC(=O)[C@H](CC(=O)O)NC(=O)[C@H](CC(C)C)NC(=O)[C@H](Cc1ccc(O)cc1)NC(=O)[C@H](CCCCN)NC(=O)[C@H](CO)NC(=O)[C@H](Cc1ccc(O)cc1)NC(=O)[C@H](CC(=O)O)NC(=O)[C@H](CO)NC(=O)[C@@H](NC(=O)[C@H](Cc1ccccc1)NC(=O)[C@@H](NC(=O)CNC(=O)[C@H](CCC(N)=O)NC(=O)[C@@H](CO)NC(=O)[C@@H](N)Cc1c[nH]cn1)[C@@H](C)O)[C@@H](C)O)C(=O)N[C@@H](CCCNC(=N)N)C(=O)N[C@@H](CCCNC(=N)N)C(=O)N[C@@H](C)C(=O)N[C@@H](CCC(N)=O)C(=O)N[C@@H](CC(=O)O)C(=O)N[C@@H](Cc1ccccc1)C(=O)N[C@H](C(=O)N[C@@H](CCC(N)=O)C(=O)N[C@@H](Cc1c[nH]c2ccccc12)C(=O)N[C@@H](CC(C)C)C(=O)N[C@@H](CC(C)C)C(=O)N[C@@H](CC(N)=O)C(=O)N[C@H](C(=O)NCC(=O)NCC(=O)N1CCC[C@H]1C(=O)N[C@@H](CO)C(=O)N[C@@H](CO)C(=O)NCC(=O)N[C@@H](C)C(=O)N1CCC[C@H]1C(=O)N1CCC[C@H]1C(=O)N1CCC[C@H]1C(=O)N[C@@H](CO)C(N)=O)[C@@H](C)O)C(C)C)C(=O)O; system = rhesus monkey, female; conditions = subcutaneous, 60 µg/kg once daily, 28 days; measurement = total bilirubin; value = 5.4 ± 2.1 µmol/L
Compound = CC[C@H](C)[C@@H]1NC(=O)[C@H](CC(=O)O)NC(=O)[C@H]([C@@H](C)O)NC(=O)[C@@H]2CSSC[C@@H]3NC(=O)[C@H](CC(C)C)NC(=O)[C@H](CC(N)=O)NC(=O)[C@H](CC(C)C)NC(=O)[C@H](CCCNC(=N)N)NC(=O)[C@H](Cc4ccc(O)cc4)NC(=O)[C@H](CCCCN)NC(=O)[C@H](CCSC)NC(=O)[C@H](CO)NC(=O)[C@H]([C@@H](C)O)NC(=O)[C@H](CCCNC(=N)N)NC(=O)[C@H](CSSC[C@H](NC(=O)[C@H]([C@@H](C)O)NC(=O)[C@H](CCCCN)NC(=O)[C@H](CCCNC(=N)N)NC3=O)C(=O)NCC(=O)N[C@@H](CO)C(=O)N[C@H](C(=O)O)CSSC[C@H](NC(=O)[C@@H](NC(=O)[C@@H](N)CCCNC(=N)N)[C@@H](C)O)C(=O)N[C@@H](CCCCN)C(=O)N[C@@H](CC(=O)O)C(=O)N[C@@H](CC(C)C)C(=O)N[C@@H]([C@@H](C)CC)C(=O)N3CCC[C@H]3C(=O)N[C@@H](C(C)C)C(=O)N[C@@H](CO)C(=O)N[C@@H](CCC(=O)O)C(=O)N2)NC(=O)[C@H](CCCNC(=N)N)NC1=O; tested on = KcsA-Shaker chimera channel; assay = two-electrode voltage clamp; system = Xenopus oocytes; conditions = 5 nM, 0 mV; measurement = dissociation time constant; value = 714 ± 82 s
Compound = CC[C@H](C)[C@H](NC(=O)[C@H](CC(C)C)NC(=O)[C@@H](NC(=O)[C@@H](NC(=O)[C@H](CC(C)C)NC(=O)[C@H](CCCCN)NC(=O)[C@@H](N)CCCCN)[C@@H](C)CC)[C@@H](C)O)C(=O)N[C@@H](Cc1ccccc1)C(=O)N[C@@H](CCCCN)C(=O)N[C@@H](CCCCN)C(=O)N[C@H](C(=O)N[C@@H](CCCNC(=N)N)C(=O)N[C@@H](CCC(=O)O)C(=O)N[C@@H](CCCCN)C(=O)N[C@@H](CCCCN)C(=O)N[C@@H](CCCCN)C(=O)N[C@@H](CCC(=O)O)C(=O)N[C@@H](CS)C(=O)N[C@@H](CC(C)C)C(=O)N[C@H](C(=O)O)C(C)C)[C@@H](C)O; tested on = TTX-sensitive sodium channel (mouse); assay = resurgent sodium current, open-channel blocker, kinetic model fit; system = mouse hippocampal CA3 neurons; conditions = 200 µM assumed intracellular, membrane potential -30 mV, unit not given; how to read = relative to: kIO over kOI; measurement = inactivation equilibrium constant; value = 0.068
Compound = CC(=O)N[C@@H](CCCNC(=O)c1ccc(-c2cc(C(F)(F)F)ccn2)cc1)C(=O)NCC(=O)N[C@@H](CCCNC(=O)c1ccc(-c2cc(C(F)(F)F)ccn2)cc1)C(N)=O; tested on = vaccinia virus VH1 phosphatase; assay = enzyme activity, inhibitor; measurement = IC50; value = 4000 nM
Compound = Nc1ccn(C2CCC(OC(C(=O)O)P(=O)(O)O)C2)c(=O)n1 (racemic); tested on = HIV-1 reverse transcriptase K70E; assay = enzyme activity, inhibitor; conditions = with: poly(rI)·oligo(dC), [3H]dCTP; how to read = relative to: mutant over wild type; measurement = fold resistance; value = 0.2 fold
Compound = Cc1cc(/C=C/C#N)cc(C)c1-n1cnc2cnc(Nc3ccc(C#N)cc3)nc21; tested on = HIV-1; assay = viral replication, single-round infection; system = RT mutant Y188L; measurement = EC50; value = 24.5 ± 4 nM
Compound = CC[C@H](C)[C@H](NC(=O)[C@H](CC(C)C)NC(=O)[C@H](CCCCN)NC(=O)[C@@H](N)CCCCN)C(=O)N[C@H](C(=O)N[C@@H](Cc1ccccc1)C(=O)N[C@H](C(=O)N1CCC[C@H]1C(=O)N[C@@H](CCCCN)C(=O)N[C@@H](CCCCN)C(=O)N[C@H](C(=O)N[C@@H](CCCNC(=N)N)C(=O)N[C@@H](CCC(=O)O)C(=O)N[C@@H](CCCCN)C(=O)N[C@@H](CCCCN)C(=O)N[C@@H](CCCCN)C(=O)N[C@@H](CCC(=O)O)C(=O)N[C@@H](CS)C(=O)N[C@@H](CC(C)C)C(=O)N[C@H](C(=O)O)C(C)C)[C@@H](C)O)[C@@H](C)CC)[C@@H](C)O; tested on = TTX-sensitive sodium channel (mouse); assay = resurgent sodium current, open-channel blocker, kinetic model fit; system = mouse hippocampal CA3 neurons; conditions = 200 µM assumed intracellular, membrane potential -10 mV, unit not given; how to read = relative to: kIO over kOI; measurement = inactivation equilibrium constant; value = 0.19
Compound = CCCCCCCCCCCCCCCCCC(=O)N[C@@H](CCC(=O)NCCCC[C@H](NC(=O)[C@H](CCC(N)=O)NC(=O)[C@H](CCCCN)NC(=O)[C@H](CO)NC(=O)[C@H](CC(C)C)NC(=O)[C@H](CC(=O)O)NC(=O)[C@H](CO)NC(=O)[C@@H](NC(=O)[C@H](Cc1ccccc1)NC(=O)[C@@H](NC(=O)CNC(=O)[C@H](CCC(N)=O)NC(=O)[C@@H](CO)NC(=O)[C@@H](N)Cc1c[nH]cn1)[C@@H](C)O)[C@@H](C)O)C(=O)N[C@@H](CC(=O)O)C(=O)N[C@@H](CCC(=O)O)C(=O)N[C@@H](CCC(N)=O)C(=O)N[C@@H](CC(C)C)C(=O)N[C@@H](C)C(=O)N[C@@H](CCCCN)C(=O)N[C@@H](CC(=O)O)C(=O)N[C@@H](Cc1ccccc1)C(=O)N[C@H](C(=O)N[C@@H](CCC(=O)O)C(=O)N[C@@H](Cc1c[nH]c2ccccc12)C(=O)N[C@@H](CC(C)C)C(=O)N[C@@H](CCCCN)C(=O)N[C@@H](C)C(=O)NCC(=O)NCC(=O)N1CCC[C@H]1C(=O)N[C@@H](CO)C(=O)N[C@@H](CO)C(=O)NCC(=O)N[C@@H](C)C(=O)N1CCC[C@H]1C(=O)N1CCC[C@H]1C(=O)N1CCC[C@H]1C(=O)N[C@@H](CO)C(N)=O)[C@@H](C)CC)C(=O)O; tested on = glucagon receptor (monkey); assay = cAMP production, agonist, HTRF; system = HEK293 expressing monkey GCGR; measurement = EC50; value = 0.119 nM
Compound = CC[C@H](C)[C@@H]1NC(=O)[C@H](CC(=O)O)NC(=O)[C@H]([C@@H](C)O)NC(=O)[C@@H]2CSSC[C@@H]3NC(=O)[C@H](CC(C)C)NC(=O)[C@H](CC(N)=O)NC(=O)[C@H](CC(C)C)NC(=O)[C@H](CCCNC(=N)N)NC(=O)[C@H](C)NC(=O)[C@H](CCCCN)NC(=O)[C@H](CCSC)NC(=O)[C@H](CO)NC(=O)[C@H]([C@@H](C)O)NC(=O)[C@H](CCCNC(=N)N)NC(=O)[C@H](CSSC[C@H](NC(=O)[C@H]([C@@H](C)O)NC(=O)[C@H](CCCCN)NC(=O)[C@H](CCCNC(=N)N)NC3=O)C(=O)NCC(=O)N[C@@H](CO)C(=O)N[C@H](C(=O)O)CSSC[C@H](NC(=O)[C@@H](NC(=O)[C@@H](N)CCCNC(=N)N)[C@@H](C)O)C(=O)N[C@@H](CCCCN)C(=O)N[C@@H](CC(=O)O)C(=O)N[C@@H](CC(C)C)C(=O)N[C@@H]([C@@H](C)CC)C(=O)N3CCC[C@H]3C(=O)N[C@@H](C(C)C)C(=O)N[C@@H](CO)C(=O)N[C@@H](CCC(=O)O)C(=O)N2)NC(=O)[C@H](CCCNC(=N)N)NC1=O; tested on = KcsA-Shaker channel; assay = two-electrode voltage clamp; system = Xenopus oocytes; conditions = 0 mV; measurement = koff; value = 0.15 ± 0.01 s⁻¹
Compound = Cc1cc(/C=C/C#N)cc(C)c1Nc1nc(Nc2ccc(C#N)cc2)ncc1N; tested on = HIV-1; assay = viral replication, single-round infection; system = RT mutant L234I; measurement = EC50; value = 0.2 ± 0.1 nM

A few entries again:
Compound = Cc1cc(/C=C/C#N)cc(C)c1-n1cnc2cnc(Nc3ccc(C#N)cc3)nc21; tested on = HIV-1; assay = viral replication, single-round infection; system = RT mutant Y188L; measurement = EC50; value = 24.5 ± 4 nM
Compound = CC[C@H](C)[C@H](NC(=O)[C@H](CC(C)C)NC(=O)[C@H](CCCCN)NC(=O)[C@@H](N)CCCCN)C(=O)N[C@H](C(=O)N[C@@H](Cc1ccccc1)C(=O)N[C@H](C(=O)N1CCC[C@H]1C(=O)N[C@@H](CCCCN)C(=O)N[C@@H](CCCCN)C(=O)N[C@H](C(=O)N[C@@H](CCCNC(=N)N)C(=O)N[C@@H](CCC(=O)O)C(=O)N[C@@H](CCCCN)C(=O)N[C@@H](CCCCN)C(=O)N[C@@H](CCCCN)C(=O)N[C@@H](CCC(=O)O)C(=O)N[C@@H](CS)C(=O)N[C@@H](CC(C)C)C(=O)N[C@H](C(=O)O)C(C)C)[C@@H](C)O)[C@@H](C)CC)[C@@H](C)O; tested on = TTX-sensitive sodium channel (mouse); assay = resurgent sodium current, open-channel blocker, kinetic model fit; system = mouse hippocampal CA3 neurons; conditions = 200 µM assumed intracellular, membrane potential -10 mV, unit not given; how to read = relative to: kIO over kOI; measurement = inactivation equilibrium constant; value = 0.19
